# Assay results gathered from unrelated publications.
# Numbered parts are unrelated; each lists some results of a single study.

# Series 1 — method: RNA Bind-n-Seq; molecule type: RNA; sample: in vitro; tested at: 365 nM; reference: no-protein control; direction: higher = stronger binding
# Target: RNA binding protein fox-1 homolog 2, RRM domain, GST-SBP tag (RBFOX2, Homo sapiens, UniProt O43251-10, residues 100-194)
# Notes: natural RNA segment, single round, ends assumed
# Construct (chain): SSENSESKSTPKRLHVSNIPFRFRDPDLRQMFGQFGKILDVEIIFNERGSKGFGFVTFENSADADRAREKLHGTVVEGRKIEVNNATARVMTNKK
Oligonucleotide,RBNS enrichment (R)
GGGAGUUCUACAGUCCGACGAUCCCCUUAGUGAGGGCAAAGUGUAGUUGGUAGAAGAAAUUGCUAAAUACCUAUCUAAUGUGCUAUGUUUAUCAAAUCGUGUACUAAAAUGGAAAGCUAGUUUUGAGAAAUUAUGGAAUUCUCGGGUGCCAA,0.613
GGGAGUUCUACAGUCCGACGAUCAGAGGAAAUCUCCCAGUCCCACUCUCGGAGGGUUAAGAGAAGGCCUCCUGCAGCUGUGCCGUCCACACCUCUAGGUCGCCAGAGCCCUGGCCCCCAGCCCCCAGCAAGCCUGGAAUUCUCGGGUGCCAA,0.287
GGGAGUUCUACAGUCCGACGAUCCACAAAUGAAUAUCUCAAUUACAUUUGGGUUCCAUUCUCAAGAUAUUUUAUUAUGUAUAUUCAAUUCAAAUAUUCUAAUGUCUAGAAAAAUGAAAACCCUGGAUAUUCUGUGGAAUUCUCGGGUGCCAA,0.488
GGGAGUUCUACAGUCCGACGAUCGAAACUCUUAGCCUGCAGAAUUUAAGACAAUGGCAGUUUUUAUCGUGAUUUGCCUUUGAACUUGGUCCUAUUGAAGUUCACAAUAAGUGGAAAACAAUUUUUUCAGAGAAUGGAAUUCUCGGGUGCCAA,0.511
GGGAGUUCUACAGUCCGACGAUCACAGUGUAGGAUUUAAGAAUAGAUGGUUUUUAAUCCUGGAAAUUGUGAUUGUGACCCAUGAGUGGAGGAACUUUCAGUUCUAAAGCUGAUAAAGUGUGUAGCCAGAAGAGUGGAAUUCUCGGGUGCCAA,0.5

# Series 2 — method: protein-binding microarray; molecule type: double-stranded DNA, one strand shown; sample: in vitro; tested at: 250 nM; notes: 60-bp whole probe; with: salmon DNA 0.4 mg/ml; reference: random background probes; direction: higher = stronger binding
# Target: Interferon regulatory factor 5, full length, phosphomimetic (IRF5, Homo sapiens, UniProt Q13568-2, residues 1-514, K96S/S451D/S453D/S456D/S462D)
Oligonucleotide,log fluorescence [z-score]
GCCTAGCACGACCGTATCGGGTATCGGGACGTGCTAGTCTTGATTCGCTTGACGCTGCTG,3.41
GCCTAGCACGTAGGTTTCCTTATCCTTTAGTGCTAGGTCTTGATTCGCTTGACGCTGCTG,0.9
GCCTAGCACTTAGGTATCGACACTGGGCTAGTGCTAGTCTTGATTCGCTTGACGCTGCTG,2.17
GCCTAGCACTTAGGACTGGACTATAGGTTAGTGCTAGTCTTGATTCGCTTGACGCTGCTG,-0.256

# Series 3 — method: Sort-seq; measured: YFP reporter; sample: E. coli; notes: PhoQ-PhoP variant library; with: 10 µM Mg2+; reference: high Mg2+ state; direction: higher = stronger signaling
# Molecule: PhoQ, residues 284 288 289 292 302 303 TVTVVA
target,fold induction
"PhoP, residues 12 14 15 18 19 LFHKL (Escherichia coli, UniProt P23836)",1.17
"PhoP, residues 12 14 15 18 19 QQAYL (Escherichia coli, UniProt P23836)",17.1
"PhoP, residues 12 14 15 18 19 GMGLL (Escherichia coli, UniProt P23836)",5.01

# Series 4 — method: protein binding microarray; molecule type: double-stranded DNA, one strand shown; sample: in vitro; tested at: not given; reference: not given; direction: higher = stronger binding
# Target: Histone acetyltransferase KAT6A, winged helix 1, GST fusion (KAT6A, Homo sapiens, UniProt Q92794, residues 1-85)
# Notes: 8-mer, flanks averaged, mean of 2 arrays, mostly near background
# Target sequence (chain): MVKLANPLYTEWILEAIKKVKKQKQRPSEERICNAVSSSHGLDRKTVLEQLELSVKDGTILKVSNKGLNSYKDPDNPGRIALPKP
Oligonucleotide,E-score
CGCTAGAA,0.0601
AACAGTTA,0.0447
ACATTGGC,-0.251

# Repeated from above (series 2):
Oligonucleotide,log fluorescence [z-score]
GCCTAGCACGTAGGTTTCCTTATCCTTTAGTGCTAGGTCTTGATTCGCTTGACGCTGCTG,0.9
GCCTAGCACTTAGGACTGGACTATAGGTTAGTGCTAGTCTTGATTCGCTTGACGCTGCTG,-0.256
